Measured values from different studies.
Protocols differ between the studies behind these lines. ± marks the error that the study gave.

Compound	test	test system	setting	scale	quantity	result
CC(C)C1=C(OC(=O)C(C)(C)C)C(=O)C2=C(C=C[C@H]3C(C)(C)CCC[C@]23C)C1=O	oxygen radical absorbance capacity, fluorometric				ORAC	0.826 Trolox equivalents
COc1ccc(C2CC(c3ccc(C)cc3)=Nc3ccccc3S2)cc1 (stereo not shown)		Wistar rat, STZ-induced diabetes	oral, 10 mg/kg once daily, day 7		blood glucose	292 ± 4.71 mg/dL
CCCCCCCCCCCCCCCC(=O)N[C@@H](CCC(=O)NCCCC[C@H](NC(=O)[C@H](CC(=O)O)NC(=O)[C@H](CO)NC(=O)[C@@H](NC(=O)[C@H](Cc1ccccc1)NC(=O)[C@@H](NC(=O)CNC(=O)[C@H](CCC(N)=O)NC(=O)[C@H](CO)NC(=O)[C@@H](N)Cc1c[nH]cn1)[C@@H](C)O)[C@@H](C)O)C(=O)N[C@@H](CO)C(=O)N[C@@H](CCC(=O)O)C(=O)N[C@@H](Cc1ccc(O)cc1)C(=O)N[C@@H](CC(C)C)C(=O)N[C@@H](CC(=O)O)C(=O)N[C@@H](CO)C(=O)N[C@@H](CCC(=O)O)C(=O)N[C@@H](CCCNC(=N)N)C(=O)N[C@@H](C)C(=O)N[C@@H](CCCNC(=N)N)C(=O)N[C@@H](CC(=O)O)C(=O)N[C@@H](Cc1ccccc1)C(=O)N[C@H](C(=O)N[C@@H](C)C(=O)N[C@@H](Cc1c[nH]c2ccccc12)C(=O)N[C@@H](CC(C)C)C(=O)N[C@@H](CCC(=O)O)C(=O)N[C@@H](C)C(=O)NCC(=O)NCC(=O)O)C(C)C)C(=O)O	intraperitoneal glucose tolerance test	diet-induced obese mouse	subcutaneous, 10 nmol/kg daily, day 21, added: glucose 1 g/kg intraperitoneal		glucose AUC	1290 mmol·min/L
CC(=O)c1cnc(N)nc1N1CC[C@H]1c1nn2ccc(Cl)c2c(=O)n1-c1ccccc1	arthritic inflammation	rat collagen-induced arthritis	oral, once daily		ED50	0.5 mg/kg
CC1=C(/C=C/C(=O)N2CCN(C(N)=O)CC2)C(C)(C)CCC1		T17M RHO transgenic mouse, posterior retina	dose not given, 7 weeks	reference: vehicle	ONL thickness	~50%
CCCOC(=O)Cc1c(C)n(C(=O)c2ccc(Cl)cc2)c2ccc(OC)cc12	hot plate test	BALB/c mice	75 mg/kg, 60 min		latency of nociceptive response	17.4 ± 1.02 s
CCOC(=O)C(Cc1cccc(O)c1)OC(=O)C=Cc1ccc(O)c(O)c1C=Cc1ccc(O)c(O)c1 (stereo not shown)		C57 wild-type mice, isoproterenol-induced myocardial ischemia, serum	oral, 10 mg/kg pretreatment for 7 days, added: isoproterenol 3 mg/kg	reference: normal group	serum CK level	112 ± 4%
O/N=C/c1cnn(-c2ccccc2)n1	prothrombin time	human plasma	1 µM		clotting time	15.4 ± 1 s
Cc1c(C(=O)Nc2ccn(C)n2)ncn1Cc1cccc(C(F)(F)F)c1	western blot	human WT αS transgenic mouse, cortex	dose not given	reference: placebo	BiP protein level	decreased
CN1Cc2c(Cl)cc(Cl)cc2C(c2ccc(S(=O)(=O)NCCOCCOCCNC(=O)C(O)C(O)C(=O)NCCOCCOCCNS(=O)(=O)c3ccc(C4CN(C)Cc5c(Cl)cc(Cl)cc54)cc3)cc2)C1 (stereo not shown)		Sprague Dawley rats	oral, 3 mg/kg, 16 h		fecal water content	59 % by weight
COc1ccc2c(c1)c(CC(=O)OCOC(C)=O)c(C)n2C(=O)c1ccc(Cl)cc1	hot plate test	BALB/c mice	50 mg/kg, 90 min		latency of nociceptive response	16 ± 0.54 s
O=C(O)C1OC(OC2C(COS(=O)(=O)O)OC(OC3C(C(=O)O)OC(OC4C(COS(=O)(=O)O)OC(OC5C(C(=O)O)OC(OC6C(COS(=O)(=O)O)OC(OC7C(C(=O)O)OC(OC8C(COS(=O)(=O)O)OC(OC9C(C(=O)O)OC(OC%10C(COS(=O)(=O)O)OC(OC%11C(C(=O)O)OC(Oc%12ccc([N+](=O)[O-])cc%12)C(O)C%11O)C(NS(=O)(=O)O)C%10O)C(OS(=O)(=O)O)C9O)C(NS(=O)(=O)O)C8O)C(OS(=O)(=O)O)C7O)C(NS(=O)(=O)O)C6O)C(OS(=O)(=O)O)C5O)C(NS(=O)(=O)O)C4O)C(OS(=O)(=O)O)C3O)C(NS(=O)(=O)O)C2OS(=O)(=O)O)C(O)C(O)C1OC1OC(COS(=O)(=O)O)C(O)C(O)C1NS(=O)(=O)O (stereo not shown)		BERK sickle cell mice, plasma	subcutaneous, 2.0 mg/kg every 8 h for 7 days		plasma TAT complexes	decreased
Cc1cc(NC(=O)[C@H](O)c2cc(F)cc(F)c2)ccc1-c1cnc(N)c(C(=O)NC(C)C)c1	measured: phospho-PERK	mouse, pancreas	oral, 30 mg/kg single		time to pPERK baseline	≤ 12 h
O=S(=O)(c1ccccc1)N(CCc1nnc(S)o1)c1ccc(Cl)cc1		rat	200 mg/kg, 5 h, added: carrageenan		paw edema inhibition	60.1%
CN(Cc1ccc(/C=C/C(=O)Nc2ccccc2N)cc1)CC12CC3CC(CC(C3)C1)C2	forced swim test	rat	i.p., 0.025 mg/kg, 7 days	reference: vehicle	immobility score	no effect
CCCCOCc1cn(-c2cc(Cl)ccc2Cl)nn1	aPTT	human plasma	10 µM		clotting time	50.6 ± 10 s
CC[C@H]1[C@@H](O)[C@@H]2[C@H](CC[C@]3(C)[C@@H]([C@H](C)CCOS(=O)(=O)[O-])CC[C@@H]23)[C@@]2(C)CC[C@@H](O)C[C@@H]12.[Na+]	EchoMRI	ob/ob NASH mouse model	oral, 3 mg/kg once daily, 8 weeks		whole-body lean mass	17.6 ± 0.5 g
Cc1ccc(S(=O)(=O)N(CCc2nnc(S)o2)c2ccc(Cl)cc2)cc1		rat	75 mg/kg, 1 h, added: carrageenan		paw edema inhibition	19.4%
Nc1nc2cnc(C(=O)N3CCOC[C@@H]3c3ccc(C(F)(F)F)cc3)cc2c2c1COC2	measured: circulating tumour DNA	human, plasma cfDNA	oral, 800 mg once daily		time to ctDNA decline	≤ 4 weeks
CCCCCCCCCCCCCCCC(=O)OCC(CSC[C@H](N)C(=O)N[C@@H](CO)C(=O)N[C@@H](CCCCN)C(=O)N[C@@H](CCCCN)C(=O)N[C@@H](CCCCN)C(=O)N[C@@H](CCCCN)C(=O)NCCCCCC(=O)N[C@@H](CCCCN)C(=O)N[C@@H](CC(C)C)C(=O)N[C@H](C(=O)N[C@@H](Cc1ccccc1)C(=O)N[C@@H](Cc1ccccc1)C(=O)N[C@@H](Cc1ccc2ccccc2c1)C(=O)O)C(C)C)OC(=O)CCCCCCCCCCCCCCC (stereo partly shown)	measured: amyloid plaques	APP/PS1 mouse	intracortical, dose not given, 5 d	reference: vehicle	thioflavin S fluorescence	decreased

Compound	test	test system	setting	scale	quantity	result
CC(=O)N[C@@H](Cc1c[nH]c2ccccc12)C(=O)N[C@@H](CCCCN)C(=O)N[C@@H](Cc1ccccc1)C(=O)N[C@@H](CCC(=O)O)C(=O)N[C@@H](Cc1ccccc1)C(=O)N[C@@H](CCCCN)C(=O)N[C@@H](Cc1ccccc1)C(=O)N[C@@H](CCC(=O)O)C(N)=O	circular dichroism	5% HFIP in water	0.2 mM, 25 °C		time to self-assembly equilibrium	~24 h
O=C([O-])CN1CCN(CC(=O)[O-])CCN(CC(=O)NC[C@H]2CC[C@H](C(=O)N[C@H](Cc3cnc4ccccc4c3)C(=O)NCCCC[C@H](NC(=O)N[C@@H](CCC(=O)O)C(=O)O)C(=O)O)CC2)CCN(CC(=O)[O-])CC1.[64Cu+2]	Youden index, measured: prostate cancer	prostate cancer patients, biopsy cores			optimal cut-off	66 CPM
NS(=O)(=O)NCC(F)(F)c1ccccc1F	protection from seizures	hippocampal kindled rat	intraperitoneal, 0.25 h		ED50	44 ± 3 mg/kg
Cc1ccc(N(CCc2nnc(S)n2N)S(=O)(=O)c2ccccc2)cc1	paw oedema	rat carrageenan oedema	dose not given, 6 h		inhibition	67.6%
Cc1cc2c(cc1C1(c3ncc(C(=O)O)cn3)CC1)C(C)(C)CCC2(C)C	RNA sequencing, measured: Nmb	rat, brain	dose not given, 24 h	reference: vehicle	log2 fold change	0.2
Cc1cc(Nc2cc3ncccc3c(N[C@@H]3C[C@H]4CC[C@@H](C3)N4CCC#N)n2)n[nH]1		moderate-severe ulcerative colitis patients	20 mg, day 28	reference: patients	endoscopic improvement	20%
COc1cc(C(=O)OCCCN2CCCN(CCCOC(=O)c3cc(OC)c(OC)c(OCc4ccc([N+](=O)[O-])cc4)c3)CC2)cc(OC)c1OC	patch clamp	spinal lamina IIo neurons, STZ-treated mouse, spinal cord slices	3 µM, 3 min		sEPSC frequency	decreased
O=[N+]([O-])c1cc(Br)cc([N+](=O)[O-])c1NS(=O)(=O)c1ccc(Br)cc1	RNA-Seq	Arabidopsis thaliana Col seedlings, ten-day-old	50 µM, 3 h		number of specifically responsive genes	936
Cc1nc(C)c(C=[N+]([O-])C(C)(C)C)nc1C	HPLC-ECD	MPTP-treated mice	30 mg/kg		striatal dopamine increase	16.8%
C(=C/c1ccccc1)/c1ccccc1	cell proliferation, CellTiter-Glo	cord blood CD34+ cells, human	24 h, lowest dose with significant inhibition	reference: vehicle	lowest effective concentration	250 to 500 µM
COc1cc(Cn2ccc3cc(C(=O)NCC45CC6CC(CC(C6)C4)C5)ccc32)ccc1C(=O)NO	immunohistochemistry, measured: amyloid-beta	5xFAD mouse, brain	intraperitoneal, 10 mg/kg once daily, 2 months	reference: vehicle	total plaque number	decreased
CCOc1ccccc1-c1nnc2n1N=C(c1ccc(N3CCCC3)cc1)CS2		db/db diabetic mice, excisional wounds	10 µM	reference: PBS	healing time reduction	36%
COc1ccc(-n2cc(CO)nn2)cc1	aPTT	human plasma	10 µM		clotting time	48.6 ± 9 s
CCOC(=O)C1=CN([C@@H]2O[C@H](CO)[C@@H](O)[C@H]2O)C=CC1	western blot	HEK293 mitochondrial lysate	concentration not given, added: SIRT5	reference: no compound	protein succinylation level	decreased
C=C(c1cc(F)c(C(=O)O)c(F)c1)c1cc2c(cc1C)C(C)(C)CCC2(C)C	RNA sequencing, measured: Lrrc4c mRNA	rat, brain	dose not given, 24 h, single dose	reference: vehicle	log2 fold change	-0.44
Cc1ncc2c(n1)CN(C(=O)Nc1nc(-c3cccs3)ccc1N)C2		wild type mouse, hippocampal CA1	oral, 1 mg/kg daily, 14 days	reference: vehicle	total spine density increase	21%
C=C1C(=O)OC2C1CCC1(C)OC13CC1OC1(C)C23 (single isomer, unassigned)		sarcoma M-1, outbred white rat	intraperitoneal, maximum tolerated dose, daily, 5 days		tumour growth inhibition	78 to 88%
CC(C)[C@H](NC(=O)CN)C(=O)N[C@@H](CCCCN)C(=O)NCC(=O)N[C@@H](CC(=O)O)C(=O)N[C@@H](CCCCN)C(=O)NCC(=O)N[C@@H](CC(N)=O)C(=O)N1CCC[C@H]1C(=O)NCC(=O)N[C@@H](Cc1c[nH]c2ccccc12)C(=O)N1CCC[C@H]1C(=O)NCC(=O)N[C@@H](C)C(=O)N1CCC[C@H]1C(=O)O		K1735 M4 melanoma, mouse	dose not given, soluble peptide, added: type I collagen-coated filters		cell motility	no inhibition
OCc1cnn(-c2ccccc2)n1	aPTT	human plasma	10 µM		clotting time	52 ± 0.9 s
Cc1ccc([C@@H]2O[C@H](CO)[C@@H](O)[C@H](O)[C@H]2O)cc1Cc1ccc(-c2ccc(F)cc2)s1		rabbit, STZ-nicotinamide diabetes, serum	concentration not given, 28 days		blood urea nitrogen	72.1 ± 6.01 mg/dL

Repeated from above:
Compound	test	test system	setting	scale	quantity	result
CCCCCCCCCCCCCCCC(=O)OCC(CSC[C@H](N)C(=O)N[C@@H](CO)C(=O)N[C@@H](CCCCN)C(=O)N[C@@H](CCCCN)C(=O)N[C@@H](CCCCN)C(=O)N[C@@H](CCCCN)C(=O)NCCCCCC(=O)N[C@@H](CCCCN)C(=O)N[C@@H](CC(C)C)C(=O)N[C@H](C(=O)N[C@@H](Cc1ccccc1)C(=O)N[C@@H](Cc1ccccc1)C(=O)N[C@@H](Cc1ccc2ccccc2c1)C(=O)O)C(C)C)OC(=O)CCCCCCCCCCCCCCC (stereo partly shown)	measured: amyloid plaques	APP/PS1 mouse	intracortical, dose not given, 5 d	reference: vehicle	thioflavin S fluorescence	decreased
CC(=O)N[C@@H](Cc1c[nH]c2ccccc12)C(=O)N[C@@H](CCCCN)C(=O)N[C@@H](Cc1ccccc1)C(=O)N[C@@H](CCC(=O)O)C(=O)N[C@@H](Cc1ccccc1)C(=O)N[C@@H](CCCCN)C(=O)N[C@@H](Cc1ccccc1)C(=O)N[C@@H](CCC(=O)O)C(N)=O	circular dichroism	5% HFIP in water	0.2 mM, 25 °C		time to self-assembly equilibrium	~24 h
O=C([O-])CN1CCN(CC(=O)[O-])CCN(CC(=O)NC[C@H]2CC[C@H](C(=O)N[C@H](Cc3cnc4ccccc4c3)C(=O)NCCCC[C@H](NC(=O)N[C@@H](CCC(=O)O)C(=O)O)C(=O)O)CC2)CCN(CC(=O)[O-])CC1.[64Cu+2]	Youden index, measured: prostate cancer	prostate cancer patients, biopsy cores			optimal cut-off	66 CPM
